Published values from different studies.
Lines come from different studies, so protocols differ. ± marks the error that the study gave. In brackets after ≈: the same amount, converted by molar mass.

| Compound | organism | test | system | conditions | how to read | quantity | result |
| --- | --- | --- | --- | --- | --- | --- | --- |
| C[n+]1ccc(/C=C/c2ccc(O)c(O)c2)c2ccccc21 | Streptococcus mutans | microbial growth |  |  |  | MIC50 | > 400 µM |
| COc1ccc(Br)cc1/C=N/NC(=O)Cn1ccc(=O)c2ccccc21 | Tobacco mosaic virus | viral infectivity, in vivo plant |  | 500 µg/mL |  | inactivation activity | 7.4 ± 2.1% |
| Nc1ncnc2c1c(-c1ccccn1)cn2[C@@H]1O[C@H](CO)[C@@H](O)[C@H]1O | Trypanosoma congolense | parasite growth, resazurin | 6C3 diminazene-resistant | 48 h plus 24 h resazurin |  | EC50 | 56 ± 13 nM |
| Nc1ccn(C[C@@H](CO)OCP(=O)(O)OCCCS(=O)(=O)CCCCCCCCCCCCCC2CCC2)c(=O)n1 | human betaherpesvirus 5 |  | drug-resistant clinical isolates |  |  | EC90 | < 1 nM |
| CC(=O)N[C@@H]1[C@@H](O)[C@H](O)[C@@H](CO)O[C@H]1[Se][Se][C@@H]1O[C@H](CO)[C@@H](O)[C@H](O)[C@H]1NC(C)=O | Trypanosoma brucei | parasite growth, flow cytometry |  | 5 µM, 24 h |  | viability | 120% |
| Cc1cn(C2CC(N(C)C)C(CO)O2)c(=O)[nH]c1=O (stereo not drawn) | coxsackievirus B4 | viral replication | HeLa |  |  | EC50 | > 370 nM |
| C[C@H]1COc2c(N3CCN(C)CC3)c(F)cc3c(=O)c(C(=O)N[C@@H](CCCNC(=N)N)C(=O)N[C@@H](Cc4ccc(-c5ccccc5)cc4)C(=O)N[C@@H](CCCNC(=N)N)C(=O)N[C@@H](Cc4ccc(-c5ccccc5)cc4)C(=O)N[C@@H](CCCNC(=N)N)C(N)=O)cn1c23 | Enterococcus faecium |  | ATCC 2316 |  | reference: IC50 MDCK cells over MIC | selectivity index | 17.6 |
| CC[C@H](C)[C@H](NC(=O)[C@H](CCCNC(=N)N)NC(=O)[C@@H]1CCCN1C(=O)[C@@H](NC(=O)[C@H](CO)NC(=O)[C@H](CCCCN)NC(=O)[C@H](CO)NC(=O)[C@H](CCC(N)=O)NC(=O)[C@H](CCCCN)NC(=O)[C@H](CC(C)C)NC(=O)[C@H](Cc1ccccc1)NC(=O)[C@H](Cc1ccccc1)NC(=O)[C@H](CC(N)=O)NC(=O)[C@H](CCC(=O)O)NC(=O)[C@H](Cc1ccccc1)NC(=O)[C@H](CC(=O)O)NC(=O)CN)C(C)C)C(N)=O | Aedes aegypti | agonist | pharate pupae | intra-abdominal injection, 10 fmol, 9-12 h before ecdysis |  | latency to ecdysis contractions | 8 to 9 min |
| CCn1c2ccccc2c2cc(/C=N/NC(=O)Cn3ccc(=O)c4ccccc43)ccc21 | Phytophthora capsici | microbial growth |  | 50 µg/mL |  | inhibition | 26.2% |
| CC[C@H](C)[C@H](NC(=O)[C@H](CCCCN)NC(=O)[C@H](CCCCN)NC(=O)[C@H](CC(C)C)NC(=O)[C@H](CCCCN)NC(=O)[C@H](CCC(=O)O)NC(=O)[C@H](CCCCN)NC(=O)[C@@H](NC(=O)[C@H](CCCCN)NC(=O)[C@H](CC(N)=O)NC(=O)[C@H](CCCNC(=N)N)NC(=O)[C@H](Cc1ccccc1)NC(=O)[C@H](CCCCN)NC(=O)[C@H](CCCNC(=N)N)NC(=O)[C@H](CC(C)C)NC(=O)[C@H](CCCNC(=N)N)NC(=O)[C@H](CCCCN)NC(=O)[C@H](CCCNC(=N)N)NC(=O)[C@H](CC(C)C)NC(=O)CN)[C@@H](C)CC)C(=O)NCC(=O)N[C@@H](CCC(N)=O)C(=O)N[C@@H](CCCCN)C(=O)N[C@H](C(=O)N[C@@H](CCC(N)=O)C(=O)NCC(=O)N[C@@H](Cc1ccccc1)C(=O)N[C@H](C(=O)N1CCC[C@H]1C(=O)N[C@@H](CCCCN)C(=O)N[C@@H](CC(C)C)C(=O)N[C@@H](C)C(=O)N1CCC[C@H]1C(=O)N[C@@H](CCCNC(=N)N)C(=O)N[C@H](C(=O)N[C@@H](CC(=O)O)C(=O)N[C@@H](Cc1ccc(O)cc1)C(=O)O)[C@@H](C)O)C(C)C)[C@@H](C)CC | Streptomyces scabiei | inhibition zone | CGMCC 4.176 | LB agar, overnight |  | lethal concentration | 1.84 µM |
| S=C(NCc1ccccn1)NCc1ccccn1 | Proteus vulgaris | microbial growth, well diffusion |  | 20 µg/mL |  | inhibition zone | 22 mm |
| Nc1ncnc2c1c(I)cn2[C@@H]1O[C@H](CO)C[C@H]1O | Trypanosoma congolense | parasite growth, resazurin | 6C3 diminazene-resistant | 48 h plus 24 h resazurin |  | EC50 | 3 ± 0.2 nM |
| COc1cc(/C=C/c2ccc(OC)c(O)c2)cc(OC)c1 | Streptococcus mutans | microbial growth |  |  |  | MIC50 | 137 µM (≈ 39.2 µg/mL) |
| CS(=O)(=O)c1ccc(/C=N/NC(=O)Cn2ccc(=O)c3ccccc32)cc1 | Tobacco mosaic virus | viral infectivity, in vivo plant |  | 100 µg/mL |  | inactivation activity | 7 ± 1.9% |
| CC[C@H](C)[C@H](NC(=O)[C@H](CO)NC(=O)[C@H](CO)NC(=O)[C@H](Cc1ccccc1)NC(=O)CN)C(=O)N[C@@H](Cc1ccccc1)C(=O)N[C@@H](CCCNC(=N)N)C(=O)NCC(=O)N[C@H](C(=O)N[C@@H](C)C(=O)N[C@@H](CCCCN)C(N)=O)C(C)C | Escherichia coli |  | ATCC 8739 | added: 6 µM NH4Cl |  | MBC | > 128 µM |
| CON(C(=O)c1cn(C)nc1C(F)F)C(C)Cc1c(Cl)cc(Cl)cc1Cl (stereo not drawn) | Phytophthora capsici | mycelial growth |  | 1.56 µg/mL |  | inhibition | 76.7% |
| CN(C)CCCNC(=O)[C@@H]1NC(=O)[C@@H]2Cc3ccc(cc3)Oc3cc4cc(c3O)-c3ccc5c(c[nH]c5c3)C[C@@H](NC(=O)C(NC(=O)CCCCCN)c3ccc(O)cc3)C(=O)N[C@H](c3ccc(O)cc3)C(=O)N[C@H]4C(=O)N[C@@H](C(=O)N2C)c2ccc(cc2)Oc2cc1ccc2O (stereo partly drawn) | Enterococcus faecium |  | WCC 0558, VRE-B, BHI medium |  |  | MIC | 1 to 2 µg/mL (≈ 0.758 to 1.52 µM) |
| CCCCc1ccc(-c2nc(C)c(C(C)=NNC(=N)N)s2)cc1 | Staphylococcus aureus |  | ATCC 43300 MRSA |  |  | MBC | 1.3 µg/mL |
| O=C(CCNC(=O)c1ccsc1)Nc1cccc(Oc2ccc(Cl)cc2)c1 | hepatitis B virus | sucrose density gradient | HepG2.2.15.7, culture supernatant |  |  | density of HBV DNA peak | 1.24 g/mL |
| CCCCc1ccc(C(=O)N2c3ccc(F)cc3[C@@H](Nc3ccccc3)C[C@H]2C)cc1 | Aedes albopictus |  |  | 1 µM, 72 h, second-instar larvae | reference: Abbott-corrected control | mortality | 32 ± 5% |
| O=C(Cn1ccc(=O)c2ccccc21)N/N=C/c1cc(Br)c(O)c(Br)c1 | Phytophthora capsici | microbial growth |  | 50 µg/mL |  | inhibition | 23.8% |
| CCC(NC(=O)NNS(=O)(=O)c1ccc(C)cc1)(C(F)(F)F)C(F)(F)F | human betaherpesvirus 5 |  | MRC5 | concentration not given |  | antiviral activity | inactive |
| C[C@@H]1C[C@H](Nc2ccccc2)c2cc(F)ccc2N1C(=O)c1ccc(Cl)c(F)c1 | Aedes albopictus |  |  | 1 µM, 72 h, second-instar larvae | reference: Abbott-corrected control | mortality | 92 ± 3% |
| CC[C@@H](C)[C@@H](NC(=O)[C@@H](C)NC(=O)[C@@H](CCCCN)NC(=O)[C@@H](CC(C)C)NC(=O)[C@@H](C)NC(=O)[C@H](NC(=O)[C@@H](Cc1c[nH]cn1)NC(=O)[C@@H](CC(C)C)NC(=O)[C@H](NC(=O)[C@H](NC(=O)[C@@H](CCCCN)NC(=O)[C@@H](CCCCN)NC(=O)[C@@H](C)NC(=O)[C@@H](CO)NC(=O)[C@@H](CCCCN)NC(=O)[C@@H](Cc1ccccc1)NC(=O)[C@H](NC(=O)[C@@H](CCCCN)NC(=O)[C@@H](CC(C)C)NC(=O)[C@@H](Cc1ccccc1)NC(=O)[C@@H](CO)NC(=O)[C@@H](CCCCN)NC(=O)[C@@H](Cc1c[nH]c2ccccc12)NC(=O)[C@@H](CCCCN)NC(C)=O)[C@H](C)O)[C@H](C)O)C(C)C)[C@H](C)O)C(=O)N[C@H](CO)C(=O)N[C@H](CO)C(N)=O | Scedosporium prolificans |  | clinical isolate | 48 h, 30 °C |  | MIC90 | 50 µg/mL (≈ 16.7 µM) |
| CCCCCc1ccc(C(=O)N2c3ccc(F)cc3[C@@H](Nc3ccccc3)C[C@H]2C)cc1 | Aedes albopictus |  |  | 1 µM, 72 h, second-instar larvae | reference: Abbott-corrected control | mortality | 50 ± 3% |
| O=[N+]([O-])c1ccc(/C=N/N=C/c2ccc(OCc3ccccc3)cc2)o1 | Trypanosoma congolense |  | IL3000, mouse | intraperitoneal, 10 mg/kg daily for 7 days, from day 4 post-infection |  | day of death | 8 days post-infection |
| CN1CC(=O)N=C1N.C[C@H](CCC(=O)O)[C@H]1CC[C@H]2[C@@H]3[C@@H](O)C[C@@H]4C[C@H](O)CC[C@]4(C)[C@H]3CC[C@]12C | Bacillus cereus |  | TISTR 035 | 1 mg per disc, 18 to 24 h, 37 °C, 6 mm disc |  | inhibition zone diameter | 8.1 ± 1 mm |
